{"data": "Assay results from different studies", "note": "A part holds a random share of what one study measured."}
{"data": "Set 1", "target": "Sal-like protein 4, full length isoform B (SALL4, Homo sapiens, UniProt Q9UJQ4-2, residues 1-616)", "technique": "universal PBM", "form": "double-stranded DNA, one strand shown", "sample": "in vitro", "concentration": "not given", "notes": "8-mer, flanks averaged, mean of replicates", "reading": "higher = stronger binding"}
{"Strand": "GTACGTCA", "E-score": 0.0364}
{"Strand": "GAGTGTGA", "E-score": 0.0348}
{"Strand": "ATCCTCTC", "E-score": -0.117}
{"Strand": "GCTTTGGA", "E-score": 0.0175}
{"Strand": "TATTCACA", "E-score": 0.247}
{"Strand": "ACGGCTAG", "E-score": -0.1}
{"Strand": "ATCCGGAC", "E-score": -0.259}
{"Strand": "GGGAGGCA", "E-score": -0.225}
{"Strand": "CGAGCCGA", "E-score": -0.287}
{"Strand": "CCTCAAGA", "E-score": 0.0699}
{"Strand": "GTATTCGA", "E-score": -0.0702}
{"Strand": "ATTACCAA", "E-score": 0.219}
{"data": "Set 2", "target": "Histone acetyltransferase KAT6A, winged helix 1, GST fusion (KAT6A, Homo sapiens, UniProt Q92794, residues 1-85)", "technique": "protein binding microarray", "form": "double-stranded DNA, one strand shown", "sample": "in vitro", "concentration": "not given", "notes": "8-mer, flanks averaged, mean of 2 arrays, mostly near background", "baseline": "not given", "reading": "higher = stronger binding", "Target sequence (chain)": "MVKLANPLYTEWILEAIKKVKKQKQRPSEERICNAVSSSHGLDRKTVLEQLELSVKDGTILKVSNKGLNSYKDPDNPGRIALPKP"}
{"Strand": "AGTCAACT", "E-score": -0.218}
{"Strand": "AAGGTGCC", "E-score": 0.0507}
{"Strand": "AGGGATGA", "E-score": -0.232}
{"Strand": "GGGTTAAA", "E-score": 0.0405}
{"Strand": "TCAGAAGA", "E-score": -0.118}
{"Strand": "ACTGGAGC", "E-score": 0.104}
{"Strand": "ACGGCTAG", "E-score": 0.361}
{"Strand": "GTTCAAGA", "E-score": -0.104}
{"Strand": "ACAATATA", "E-score": 0.121}
{"Strand": "GATGTAAC", "E-score": 0.0976}
{"Strand": "GAAACGCC", "E-score": 0.204}
{"data": "Set 3", "Molecule": "PhoQ, residues 284 288 289 292 302 303 SASVAL", "technique": "Sort-seq", "item": "YFP reporter", "sample": "E. coli", "notes": "PhoQ-PhoP variant library", "together with": "10 µM Mg2+", "baseline": "high Mg2+ state", "reading": "higher = stronger signaling"}
{"target": "PhoP, residues 12 14 15 18 19 LHHYF (Escherichia coli, UniProt P23836)", "fold induction": 11.3}
{"target": "PhoP, residues 12 14 15 18 19 TPWTL (Escherichia coli, UniProt P23836)", "fold induction": 0.818}
{"target": "PhoP, residues 12 14 15 18 19 NFFVT (Escherichia coli, UniProt P23836)", "fold induction": 12.6}
{"target": "PhoP, residues 12 14 15 18 19 VGHWL (Escherichia coli, UniProt P23836)", "fold induction": 8.99}
{"data": "Set 4", "target": "Ras GTPase-activating protein-binding protein 1, full length (G3BP1, Homo sapiens, UniProt Q13283)", "technique": "RNA Bind-n-Seq", "form": "RNA", "sample": "in vitro", "concentration": "200 nM", "notes": "whole 134-nt RNA, ends assumed", "together with": "150 mM LiCl", "baseline": "input library", "reading": "higher = stronger binding", "all molecules": "7-deaza-guanosine replaces G", "all sequences stand within": "GGGAGUUCUACAGUCCGACGAUC … UGGAAUUCUCGGGUGUCAAGG", "chain of UniProt Q13283 (whole entry, looked up)": "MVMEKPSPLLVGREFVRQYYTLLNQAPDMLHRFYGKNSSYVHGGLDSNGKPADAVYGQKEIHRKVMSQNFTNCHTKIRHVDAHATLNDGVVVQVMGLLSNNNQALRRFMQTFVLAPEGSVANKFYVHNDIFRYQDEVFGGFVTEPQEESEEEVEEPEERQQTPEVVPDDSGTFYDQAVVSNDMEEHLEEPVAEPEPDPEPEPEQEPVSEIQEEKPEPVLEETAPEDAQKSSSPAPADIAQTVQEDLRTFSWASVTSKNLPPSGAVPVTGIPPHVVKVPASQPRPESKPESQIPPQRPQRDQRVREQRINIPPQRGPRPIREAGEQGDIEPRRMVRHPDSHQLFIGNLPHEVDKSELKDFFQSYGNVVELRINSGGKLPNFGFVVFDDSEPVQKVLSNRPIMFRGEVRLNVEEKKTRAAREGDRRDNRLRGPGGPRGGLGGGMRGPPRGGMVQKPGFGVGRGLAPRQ"}
{"Strand": "ACCAUGCAGGUGGGCAUCUUUGGGAAGUGGGGCAAGGGGGGGAUAGGGAGGGGGGUAACACUUUGGGAACAGGUAAACCCAGGUCGUUUC", "log2 enrichment": 0.00623}
{"Strand": "CCUCAAGUCCUGUGCUACACAUCGUAUGUACCGAAUCGGGGUGGGUGGUGGGGAAAGUAUUAUGUUACGCCGUUCGGAUCUGCACUUCCA", "log2 enrichment": -0.2}
{"Strand": "CUCAAGUCCUGUGCUACACAUCGUAUGUACCGAAUCGGGGCCGGGCCGGGCCGGAAAGUAUUAUGUUACGCCGUUCGGAUCUGCACUUCC", "log2 enrichment": 0.7}
{"Strand": "CUGUGCUACACAUCGUAUGUACCGAAUCGUGUGUGUGUGUGUGUGUGUGUGUGUGUGUGUGUAAAGUAUUAUGUUACGCCGUUCGGAUCU", "log2 enrichment": -0.336}
{"Strand": "GUCCUGUGCUACACAUCGUAUGUACCGAAUCGGGUUUUUUUGGGAAAAAGGGAAAGGGAAAGUAUUAUGUUACGCCGUUCGGAUCUGCAC", "log2 enrichment": -1.58}
{"Strand": "GUCCUGUGCUACACAUCGUAUGUACCGAAUCGGGGUUUGGGGUGGGGUUUUUUUGGGGAAAGUAUUAUGUUACGCCGUUCGGAUCUGCAC", "log2 enrichment": 0.23}
{"Strand": "CAAGUCCUGUGCUACACAUCGUAUGUACCGAAUCGGUUUUGGUUUUGGUUUUGGGGAAAGUAUUAUGUUACGCCGUUCGGAUCUGCACUU", "log2 enrichment": -0.918}
{"Strand": "UGGCCCUGGUGGGAUGCGGGGAGGAAGAGGUGGCCUCAUGGAUCGUGGUGGUCCCGGUGGAAUGUUCAGAGGUGGCCGUGGUGGAGACAG", "log2 enrichment": 0.53}
{"Strand": "UGGGAGGUGGAUUUUGUUUAUUUUUUUAGCUCAUUUCCAGGGGUGGGAAUUUUUUUUUAAUAUGUGUUAUGAAUAAAGUUGUUUUUGAAA", "log2 enrichment": -0.404}
{"Strand": "UAGUCCAGCAUCAAGAUUCGCCGGCCUGGAUACAAAUCAGCGACUUACAGCUUUAGCUGAAGACAGACCGUUAUUUGAUGGACCUAGUAG", "log2 enrichment": -2.35}
{"Strand": "AAGUCCUGUGCUACACAUCGUAUGUACCGAAUCGGGGAAAAGGAAAAGGAAAAGGGAAAGUAUUAUGUUACGCCGUUCGGAUCUGCACUU", "log2 enrichment": -0.292}
